Experimental data collected from several papers.
Compare with care: the assays were run in different laboratories. ± gives the spread as reported.

Substance = pneumocandin J; organism = Candida parapsilosis; test = broth microdilution, resazurin; system = ATCC 90018; conditions = 24 h, 35 °C; MIC = 25.6 mg/L
Substance = CC(C)C[C@H](NC(=O)[C@H](CCCCN)NC(=O)[C@H](C)NC(=O)[C@H](CC(C)C)NC(=O)[C@H](CCCCN)NC(=O)[C@H](CCCCN)NC(=O)[C@H](C)NC(=O)[C@H](CC(C)C)NC(=O)[C@H](CCCCN)NC(=O)[C@H](C)NC(=O)[C@H](CC(C)C)NC(=O)[C@@H](N)CCCCN)C(=O)N[C@@H](C)C(=O)N[C@@H](CCCCN)C(N)=O; organism = Staphylococcus epidermidis; system = ATCC 12228; conditions = 18 to 20 h; MIC = 4 µM
Substance = O=C(/C=C/c1ccccc1)N/N=C/c1ccccc1Cl; organism = Aspergillus niger; test = microbial growth, broth dilution; conditions = 7 days; MIC = 17.4 µM
Substance = CC(C)C[C@H](NC(=O)CNC(=O)[C@H](C)NC(=O)[C@@H](N)CCCNC(=N)N)C(=O)N[C@@H](CCC(N)=O)C(=O)N[C@@H](Cc1ccccc1)C(=O)N1CCC[C@H]1C(=O)N[C@H](C(=O)NCC(=O)N[C@@H](CCCNC(=N)N)C(=O)N[C@H](C(=O)N[C@@H](Cc1c[nH]cn1)C(=O)N[C@@H](CCCNC(=N)N)C(=O)N[C@@H](CC(C)C)C(=O)N[C@@H](CC(C)C)C(=O)N[C@@H](CCCNC(=N)N)C(=O)N[C@@H](CCCCN)C(N)=O)C(C)C)C(C)C; organism = Staphylococcus epidermidis; system = ATCC 12228; conditions = 18 to 20 h; MIC = 8 µM
Substance = Cc1cccc(C(=O)N/N=C/c2ccccc2)c1; organism = Aspergillus niger; test = microbial growth, broth dilution; conditions = 7 days; MIC = 26.3 µM
Substance = Cc1n(CC(=O)OC2CC(C)CCC2C(C)C)c2ccccc2[n+]1C (stereo not shown); organism = Mycolicibacterium smegmatis; test = microbial growth; MIC = 25 µM
Substance = C[C@H](N)C(=O)N[C@@H](CS)C(=O)N1CCC[C@H]1C(=O)N[C@@H](Cc1c[nH]cn1)C(=O)N[C@@H](CCCNC(=N)N)C(=O)N[C@@H](CS)C(=O)O; organism = Streptococcus pyogenes; test = broth microdilution; system = MTCC 442; conditions = 37 °C; MIC = 80 mg/L
Substance = TFFRLFNRGRRRRSVQWCA; organism = Streptococcus mutans; test = broth microdilution; system = peptide, GS-5; conditions = 24 h, 37 °C, planktonic, anaerobic; MIC = 12.4 ± 4.22 mg/L
Substance = Cc1ccc(/N=N/C(C=O)=C(/O)c2cc3ccccc3o2)cc1; organism = Bacillus cereus; test = microbial growth, broth dilution; system = UW85; conditions = 18 h; MIC = 256 mg/L
Substance = CC(C)C[C@H](NC(=O)[C@H](CCCNC(=N)N)NC(=O)[C@H](CC(C)C)NC(=O)[C@@H](NC(=O)[C@H](C)NC(=O)[C@H](Cc1c[nH]cn1)NC(=O)[C@H](CC(C)C)NC(=O)[C@@H](NC(=O)[C@@H](N)CO)[C@@H](C)O)C(C)C)C(=O)N[C@@H](CCCNC(=N)N)C(=O)NCC(=O)NCC(=O)O; organism = Mycolicibacterium smegmatis; system = mc2 155; conditions = 37 °C, ≥90% viability decrease; MIC = 50 µM
Substance = COc1cc(OC)cc(C(=O)N/N=C/c2ccccc2)c1; organism = Aspergillus niger; test = microbial growth, broth dilution; conditions = 7 days; MIC = 21.9 µM
Substance = CC[C@H](C)[C@H](NC(=O)[C@@H]1CCCN1C(=O)[C@H](CCCCN)NC(=O)[C@@H]1CCCN1C(=O)[C@@H]1CCCN1C(=O)[C@@H](NC(=O)[C@@H]1CCCN1C(=O)[C@H](CCCNC(=N)N)NC(=O)[C@@H]1CCCN1C(=O)[C@H](CCCNC(=N)N)NC(=O)[C@H](Cc1ccc(O)cc1)NC(=O)[C@H](CO)NC(=O)CNC(=O)[C@H](CCCCN)NC(=O)[C@H](CC(=O)O)NC(=O)[C@@H](N)C(C)C)[C@@H](C)O)C(=O)N[C@@H](Cc1ccc(O)cc1)C(=O)N[C@@H](CC(N)=O)C(=O)N[C@@H](CCCNC(=N)N)C(=O)N[C@@H](CC(N)=O)C(=O)O; organism = Salmonella enterica; system = serovar Tennessee; conditions = 18 h, 37 °C, 12.5% Mueller-Hinton broth; MIC = 0.075 ± 0.018 µM
Substance = LSTFFRLFNRSFTQGRRRRSVQWCA; organism = Streptococcus mutans; test = broth microdilution; system = peptide, GS-5; conditions = 24 h, 37 °C, planktonic, anaerobic; MIC = 13.3 ± 4 mg/L
Substance = CC(C)C[C@H](NC(=O)[C@H](CCCNC(=N)N)NC(=O)[C@H](CC(C)C)NC(=O)[C@@H](NC(=O)[C@H](CC(C)C)NC(=O)[C@H](Cc1c[nH]cn1)NC(=O)[C@H](CC(C)C)NC(=O)[C@@H](NC(=O)[C@H](C)N)[C@@H](C)O)C(C)C)C(=O)N[C@@H](CCCNC(=N)N)C(=O)NCC(=O)NCC(=O)O; organism = Mycolicibacterium smegmatis; system = mc2 155; conditions = 37 °C, ≥90% viability decrease; MIC = 25 µM
Substance = O=C(NCc1ccc2c(c1)OCO2)c1ccc(Br)cc1F; organism = Nakaseomyces glabratus; test = microbial growth; system = ATCC2001; conditions = 72 h; MIC = 50 µM
Substance = LSTFFRLFNGRRRRSVQWCA; organism = Streptococcus mutans; test = broth microdilution; system = peptide, GS-5; conditions = 24 h, 37 °C, planktonic, anaerobic; MIC = 13.3 ± 4 mg/L
Substance = N=C(N)NCCC[C@H](N)C(=O)N[C@@H](Cc1c[nH]c2ccccc12)C(=O)N[C@@H](Cc1c[nH]c2ccccc12)C(=O)N[C@@H](CCCCN)C(=O)N[C@@H](CCCCN)C(=O)N[C@@H](Cc1c[nH]c2ccccc12)C(=O)N[C@@H](Cc1c[nH]c2ccccc12)C(=O)NCC(=O)N[C@@H](CCCCN)C(N)=O; organism = Staphylococcus epidermidis; test = broth microdilution; system = 1457, Mueller-Hinton broth; conditions = overnight, 37 °C; MIC = 16 µM
Substance = CN[C@H](CC(C)C)C(=O)N[C@H]1C(=O)N[C@@H](CC(N)=O)C(=O)N[C@H]2C(=O)N[C@H]3C(=O)N[C@H](C(=O)N[C@H](C(=O)O)c4cc(O)cc(O)c4-c4cc3ccc4O)[C@H](O)c3ccc(c(Cl)c3)Oc3cc2cc(c3O[C@@H]2O[C@H](CO)[C@@H](O)[C@H](O)[C@H]2O[C@H]2C[C@](C)(N)[C@H](O)[C@H](C)O2)Oc2ccc(cc2Cl)[C@H]1O; organism = Enterococcus faecium; system = vancomycin-sensitive ATCC BAA-2127; conditions = 20 h; MIC = 1 mg/L
Substance = COC(=O)[C@H](Cc1ccccc1)NC(=O)c1ccc(NC(=O)c2cc(Br)c(Br)[nH]2)c(OCCN)c1; organism = Enterococcus faecalis; test = microbial growth, broth dilution; system = ATCC29212; MIC = > 25 µM
Substance = CC[C@H](C)[C@H](NC(=O)[C@@H]1CCCN1C(=O)[C@H](CCCNC(=N)N)NC(=O)[C@@H]1CCCN1C(=O)[C@@H]1CCCN1C(=O)[C@@H](NC(=O)[C@@H]1CCCN1C(=O)[C@H](CCCNC(=N)N)NC(=O)[C@@H]1CCCN1C(=O)[C@H](CC(C)C)NC(=O)[C@H](Cc1ccc(O)cc1)NC(=O)[C@H](CO)NC(=O)CNC(=O)[C@H](CCCCN)NC(=O)[C@H](CC(=O)O)NC(=O)[C@@H](N)C(C)C)[C@@H](C)O)C(=O)N[C@@H](Cc1ccc(O)cc1)C(=O)N[C@@H](CC(N)=O)C(=O)N[C@@H](CCCNC(=N)N)C(=O)N[C@@H](CC(N)=O)C(=O)O; organism = Salmonella enterica; system = serovar Newport; conditions = 18 h, 37 °C, 12.5% Mueller-Hinton broth; MIC = > 0.416 µM
Substance = Cc1ccc(C(=O)N/N=C/c2ccccc2)cc1; organism = Staphylococcus aureus, Bacillus subtilis, Escherichia coli; test = bacterial growth; conditions = 24 h; MIC = 52.5 µM
Substance = actinomycin Y3; organism = Mycolicibacterium aurum; test = broth microdilution; system = ATCC 23366; conditions = 16 to 48 h; MIC = > 9.33 mg/L
Substance = COc1cc(OC)cc(C(=O)N/N=C/c2ccccc2Cl)c1; organism = Staphylococcus aureus, Bacillus subtilis, Escherichia coli; test = bacterial growth; conditions = 24 h; MIC = 38.9 µM
Substance = CC[C@H](C)[C@H](NC(=O)[C@@H]1CCCN1C(=O)[C@H](CCCCN)NC(=O)[C@@H]1CCCN1C(=O)[C@@H]1CCCN1C(=O)[C@@H](NC(=O)[C@@H]1CCCN1C(=O)[C@H](CCCNC(=N)N)NC(=O)[C@@H]1CCCN1C(=O)[C@H](CCCCN)NC(=O)[C@H](Cc1ccc(O)cc1)NC(=O)[C@H](CO)NC(=O)CNC(=O)[C@H](CCCCN)NC(=O)[C@H](CC(=O)O)NC(=O)[C@@H](N)C(C)C)[C@@H](C)O)C(=O)N[C@@H](Cc1ccc(O)cc1)C(=O)N[C@@H](CC(N)=O)C(=O)N[C@@H](CCCNC(=N)N)C(=O)N[C@@H](CC(N)=O)C(=O)O; organism = Salmonella enterica; system = serovar Tennessee; conditions = 18 h, 37 °C, 12.5% Mueller-Hinton broth; MIC = 0.3 ± 0.07 µM
Substance = Cc1ccc(OCc2n(CC(=O)OC3CC(C)CCC3C(C)C)c3ccccc3[n+]2C)cc1 (stereo not shown); organism = Mycobacteroides abscessus; test = microbial growth; MIC = 25.6 µM
Substance = CC(C)[C@H](N)C(=O)N[C@@H](CS)C(=O)N1CCC[C@H]1C(=O)N[C@@H](Cc1c[nH]cn1)C(=O)N[C@@H](CCCNC(=N)N)C(=O)N[C@@H](CS)C(=O)O; organism = Streptococcus pyogenes; test = broth microdilution; system = MTCC 442; conditions = 37 °C; MIC = 45 mg/L
Substance = O=C(N/N=C/c1ccccc1Cl)c1cc([N+](=O)[O-])cc([N+](=O)[O-])c1; organism = Staphylococcus aureus, Bacillus subtilis, Escherichia coli; test = bacterial growth; conditions = 24 h; MIC = 35.5 µM
Substance = CC[C@H](C)[C@H](NC(=O)[C@H](CCCCN)NC(=O)CNC(=O)[C@H](CC(C)C)NC(=O)[C@H](CC(C)C)NC(=O)[C@H](CCCCN)NC(=O)[C@H](Cc1ccccc1)NC(=O)[C@@H](N)CC(C)C)C(=O)N[C@H](C(=O)N[C@@H](Cc1c[nH]cn1)C(=O)N[C@@H](Cc1c[nH]cn1)C(=O)N[C@H](C(=O)NCC(=O)N[C@@H](CC(N)=O)C(=O)N[C@@H](Cc1ccccc1)C(=O)N[C@H](C(=O)N[C@@H](Cc1c[nH]cn1)C(=O)NCC(=O)N[C@@H](Cc1ccccc1)C(=O)N[C@@H](CO)C(=O)N[C@@H](Cc1c[nH]cn1)C(=O)N[C@H](C(=O)N[C@@H](Cc1ccccc1)C(N)=O)C(C)C)C(C)C)C(C)C)[C@@H](C)CC; organism = Enterobacter cloacae; test = broth microdilution; system = AR 0136; conditions = pH 7.4; MIC = > 128 µM
Substance = CO/N=C(\C(=O)N[C@@H]1C(=O)N2C(C(=O)O)=C(COC(C)=O)CS[C@H]12)c1csc(N)n1; organism = Klebsiella aerogenes; system = AmpC-overproducing clinical isolate; conditions = alone without inhibitor; MIC = 32 mg/L
Substance = KKKKKKKK (Lys8-PNA conjugate); organism = Streptococcus pyogenes; test = broth microdilution; system = peptide; conditions = 0.02% acetic acid, 0.4% BSA; MIC = 15.6 µM
Substance = CN[C@@H]1[C@H](O)[C@H](NC)[C@H]2O[C@@]3(O)C(=O)C[C@@H](C)O[C@H]3O[C@@H]2[C@H]1O; organism = Mycobacteroides abscessus; system = ATCC 19977 ∆whiB7 ∆tap; conditions = 120 h; MIC = 32 to 64 mg/L

Some of these lines once more:
Substance = COc1cc(OC)cc(C(=O)N/N=C/c2ccccc2)c1; organism = Aspergillus niger; test = microbial growth, broth dilution; conditions = 7 days; MIC = 21.9 µM
Substance = CC[C@H](C)[C@H](NC(=O)[C@@H]1CCCN1C(=O)[C@H](CCCCN)NC(=O)[C@@H]1CCCN1C(=O)[C@@H]1CCCN1C(=O)[C@@H](NC(=O)[C@@H]1CCCN1C(=O)[C@H](CCCNC(=N)N)NC(=O)[C@@H]1CCCN1C(=O)[C@H](CCCNC(=N)N)NC(=O)[C@H](Cc1ccc(O)cc1)NC(=O)[C@H](CO)NC(=O)CNC(=O)[C@H](CCCCN)NC(=O)[C@H](CC(=O)O)NC(=O)[C@@H](N)C(C)C)[C@@H](C)O)C(=O)N[C@@H](Cc1ccc(O)cc1)C(=O)N[C@@H](CC(N)=O)C(=O)N[C@@H](CCCNC(=N)N)C(=O)N[C@@H](CC(N)=O)C(=O)O; organism = Salmonella enterica; system = serovar Tennessee; conditions = 18 h, 37 °C, 12.5% Mueller-Hinton broth; MIC = 0.075 ± 0.018 µM
